Measurements gathered from unrelated publications.
A part holds a random share of what one study measured. Changes are numbered by the printed parent chain.

Series 1 — method: universal PBM; molecule type: double-stranded DNA, one strand shown; matrix: in vitro; tested at: not given; direction: higher = stronger binding
Target: Sal-like protein 4, full length isoform B (SALL4, Homo sapiens, UniProt Q9UJQ4-2, residues 1-616)
Notes: 8-mer, flanks averaged, mean of replicates
| Sequence | E-score |
| --- | --- |
| GTAGATAC | 0.174 |
| ATCCGCGC | -0.244 |
| AGCAAATC | 0.116 |
| GTGAAGGA | 0.0842 |
| ACCTATCA | 0.0772 |
| GGCGGGAA | -0.127 |
| ATGGAAGA | 0.165 |
| CTAACGCA | 0.01 |
| CAAGACAA | 0.142 |
| TCATTGAA | 0.172 |
| GAACTCCA | -0.058 |
| AGAACTGG | -0.126 |
| ACTCCCTG | -0.109 |
| TAGCAACA | 0.142 |
| CGCACGGC | -0.357 |
| CATACCAC | 0.0191 |
| TGTCGTAA | 0.0635 |
| AACGTCGC | -0.236 |

Series 2 — method: Spec-seq; molecule type: double-stranded DNA, one strand shown; matrix: in vitro; tested at: not given; notes: whole probe, mean of replicates; relative to: not given; direction: lower = stronger binding; all sequences stand within: GAGTCGTCTCGTCAGCAC … CCGTAGAGCACTCAGGTC
Target: Transcription factor SOX-2, HMG box (Sox2, Mus musculus, UniProt P48432, residues 41-119)
Chain of UniProt P48432 (41-119, looked up): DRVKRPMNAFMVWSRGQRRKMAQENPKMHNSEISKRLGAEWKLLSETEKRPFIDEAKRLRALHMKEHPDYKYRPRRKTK
| Sequence | relative binding energy [ln ratio] |
| --- | --- |
| CATTACC | 0.249 |
| CATGGAA | -0.24 |
| CATGTTT | 0.54 |
| CATAATG | -1.5 |
| TCGCGTT | 1.37 |
| CATTGAA | -1.37 |
| CATTAAT | -0.721 |
| CATGAGG | 0.0622 |
| CATTGAG | -1.2 |
| ACCTGTT | 0.158 |
| TTCAGTT | 0.108 |
| CATAAGA | -0.204 |
| CATTTCA | -0.13 |
| CATTATG | -1.64 |
| TACTGTT | -0.998 |
| CATCCGC | 1.01 |
| CACAGTT | 0.0214 |
| CATGATG | 0.0882 |
| TCTAGTT | 0.316 |

Series 3 — method: protein binding microarray; molecule type: double-stranded DNA, one strand shown; matrix: in vitro; tested at: not given; relative to: not given; direction: higher = stronger binding
Target: Histone acetyltransferase KAT6A, winged helix 2, GST fusion (KAT6A, Homo sapiens, UniProt Q92794, residues 85-181)
Notes: 8-mer, flanks averaged, mean of 2 arrays, mostly near background
Construct (chain): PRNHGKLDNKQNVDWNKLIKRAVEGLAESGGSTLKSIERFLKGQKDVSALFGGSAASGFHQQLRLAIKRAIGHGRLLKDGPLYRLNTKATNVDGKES
| Sequence | E-score |
| --- | --- |
| TCTGGAAA | -0.0356 |
| CGGTCCCC | 0.141 |
| TGAGTCCA | -0.00392 |
| ACCAAGGT | -0.0462 |
| CTAAACCC | -0.147 |
| ATTTGTGC | -0.0151 |
| GGCTAGGA | -0.0151 |
| AGCGAACT | -0.0449 |
| GTCTAAAC | 0.0517 |
| AAATAGAA | -0.0041 |
| AACCCATC | -0.179 |
| AGTCTGAG | -0.0541 |
| ATACGCAC | 0.146 |
| AGGTCCAT | -0.0419 |
| AAACGACG | 0.0501 |
| CGCCGCAA | 0.14 |
| AACTCGAC | 0.114 |
| AGGTCGTG | 0.00364 |
| GATATCCC | 0.141 |
| ACCTTCGA | -0.0642 |
| AACAGGGT | -0.0578 |
| CCAGTGGC | 0.0675 |
| GTGGGATA | 0.0118 |

Series 4 — target: CCNB3, cyclin fold, Cln2 fusion (human); method: yeast growth competition, sequencing; matrix: yeast; notes: weak parent motif; relative to: not given; direction: higher = stronger binding
Starting sequence: E2F2 docking peptide (human); LPAKRKLDLEGIG
| Change | normalised enrichment score |
| --- | --- |
| P2A | 0.354 |
| R5K L9F | 1.81 |
| I12A | 0.605 |
| L7A | 0.00288 |
| K4A | 1.41 |
| L1A | 0.54 |
| E10A | 0.231 |

Series 5 — method: RNA Bind-n-Seq; molecule type: RNA; matrix: in vitro; tested at: 1 µM; notes: whole 134-nt RNA, ends assumed; with: 150 mM KCl; relative to: input library; direction: higher = stronger binding
Target: Ras GTPase-activating protein-binding protein 1, C-terminal RGG region (G3BP1, Homo sapiens, UniProt Q13283)
Chain of UniProt Q13283 (whole entry, looked up): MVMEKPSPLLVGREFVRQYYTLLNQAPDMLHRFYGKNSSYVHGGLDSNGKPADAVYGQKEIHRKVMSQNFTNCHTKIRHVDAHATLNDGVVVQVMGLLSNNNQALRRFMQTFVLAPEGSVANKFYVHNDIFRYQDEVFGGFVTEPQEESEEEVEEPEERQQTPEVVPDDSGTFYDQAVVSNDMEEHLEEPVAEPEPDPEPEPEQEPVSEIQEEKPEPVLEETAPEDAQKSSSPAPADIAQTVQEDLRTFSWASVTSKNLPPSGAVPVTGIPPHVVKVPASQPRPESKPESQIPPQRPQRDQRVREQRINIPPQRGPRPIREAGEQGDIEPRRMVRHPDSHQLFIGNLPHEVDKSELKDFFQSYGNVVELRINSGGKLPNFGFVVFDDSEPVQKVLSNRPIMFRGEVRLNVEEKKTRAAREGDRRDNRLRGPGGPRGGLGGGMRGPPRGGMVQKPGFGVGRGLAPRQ
All sequences stand within: GGGAGUUCUACAGUCCGACGAUC … UGGAAUUCUCGGGUGUCAAGG
| Sequence | log2 enrichment |
| --- | --- |
| CCUCAAGUCCUGUGCUACACAUCGUAUGUACCGAAUCGGGUGGUGGGGUGGGGAAAGUAUUAUGUUACGCCGUUCGGAUCUGCACUUCCA | 0.501 |
| UCAAGUCCUGUGCUACACAUCGUAUGUACCGAAUCGGAAAGGGAAAGGGAAAGGGAAAGUAUUAUGUUACGCCGUUCGGAUCUGCACUUC | -1.31 |
| AGUCCUGUGCUACACAUCGUAUGUACCGAAUCAAACCCAAAUUUUUAAACCCCCAAAAAAGUAUUAUGUUACGCCGUUCGGAUCUGCACU | -0.969 |
| ACCAUGCAGGUGGGCAUCUUUGGGAAGUGGGGCAAGGGGGGGAAAAGGAGGGGGGUAACACUUUGGGAACAGGUGGUCCCAGGUCGUUUC | -0.361 |
| CUCAAGUCCUGUGCUACACAUCGUAUGUACCGAAUCGGAAGGGAAGGGGAAGGAAAGUAUUAUGUUACGCCGUUCGGAUCUGCACUUCCA | -1.17 |
| UGGCCCUGGUGGCAUGCGGGGAGGAAGAGGUGGCCACAUGGAUCGUGGUGGUCCCGGUGGAAUGUUCAGAGGUGGCCGUGGUGGAGACAG | 2.44 |
| AGUCCUGUGCUACACAUCGUAUGUACCGAAUCGGGGUUUUGGGUUUUGGGUUUUGGGAAAGUAUUAUGUUACGCCGUUCGGAUCUGCACU | 0.973 |
| UGGGAGGUGGAUUUUGUUUAUUUUUUUAGCUCAUUUCCAGGGGUGGGAAUUUUUUUUUAAUAUGUGUCAUGAAUAAAGUUGUUUAUGAAA | 2.61 |
| AGUCCUGUGCUACACAUCGUAUGUACCGAAUCGGGGAAAGGGGAAAGGGGAAAGGGGAAAGUAUUAUGUUACGCCGUUCGGAUCUGCACU | 4.04 |
| AAGUCCUGUGCUACACAUCGUAUGUACCGAAUCGGGGAAAGGGAAAGGGGAAAGGGGAAAGUAUUAUGUUACGCCGUUCGGAUCUGCACU | 1.02 |
| UGGCCCUGGUGGCAUGCGGGGAGGAAGAGGUGGCCUCAUGGAUCGUGGUGGUCCCGGUGGAAUGUUCAGAGGUGGCCGUGGUGGAAACAG | 3.44 |
| AGUCCUGUGCUACACAUCGUAUGUACCGAAUCGGAAAAAAGGAAAAAAGGAAAAAAGGAAAGUAUUAUGUUACGCCGUUCGGAUCUGCAC | -2.03 |
| UCAAGUCCUGUGCUACACAUCGUAUGUACCGAAUCGGAAAGGUUUUUGGAAAGGAAAGUAUUAUGUUACGCCGUUCGGAUCUGCACUUCC | -1.54 |
| UGGCCCUGGUGGCAUGCGGGGAGGAAGAGGUGGCCUCAUGGAUCGUGGUGGUCCCGGUGGAAUGUUCAGAGGUGGCCGUCGUGGAGACAG | 2.42 |

Series 6 — method: RNA Bind-n-Seq; molecule type: RNA; matrix: in vitro; tested at: not given; relative to: input RNA pool; direction: higher = stronger binding
Target: RING finger protein unkempt homolog, zinc fingers 1-6, GST-SBP tag (UNK, Homo sapiens, UniProt Q9C0B0, residues 30-357)
Chain of UniProt Q9C0B0 (30-357, looked up): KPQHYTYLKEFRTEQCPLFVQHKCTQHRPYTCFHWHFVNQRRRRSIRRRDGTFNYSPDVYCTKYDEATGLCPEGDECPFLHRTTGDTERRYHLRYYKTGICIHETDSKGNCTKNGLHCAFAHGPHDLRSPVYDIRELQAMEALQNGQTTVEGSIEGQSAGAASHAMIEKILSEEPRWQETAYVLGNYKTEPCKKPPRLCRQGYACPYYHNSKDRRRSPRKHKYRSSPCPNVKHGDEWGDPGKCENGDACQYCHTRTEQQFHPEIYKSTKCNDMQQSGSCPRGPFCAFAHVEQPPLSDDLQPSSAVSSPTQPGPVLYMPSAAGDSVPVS
Notes: RNA with constant flanks, human-mouse chimeric sites, ends assumed
All sequences stand within: GGGAGUUCUACAGUCCGACGAUC … CAACAGAGGAUUGAGCAUCA
| Sequence | bound/input enrichment |
| --- | --- |
| UUACCCGAGAACGAGGAUGAGCUGGAGAGCACCAACAGGCGCUACACCAAGAGGGACUGUAGCACUUUCCUCAGAACUAGCGAGACGGGCAUCGUGGACCAGGUCAUGGUCACUCUCAAC | 0.23 ratio |
| AAAGAGAAACUAAAGCAACUAAUAGAGAAGAGGAUUGGCAAAGAGAAUUUCAUAGAGAAACUAGGAUUUAUUAGCAAACAUGAGUUAUAUUCCAGAGGCAUCUCAGAACCCCAGCCAAAC | 12.5 ratio |
| AAACAUCUUCUCAAGCACAUUCCAAGCGAGAAUGCUGGGGUGAUCAUUGUUGCCCAUGUGCCUUCUGACUGAGCUUUAAUGCUGUUCCAUGUUACAUCUUUCCUUCACUCCAGAAUUGUU | 0.141 ratio |
| CUGUGACCACAAGAUCCUACCUGAGUGGCAGCUGAAGUUGACUCCCUCCCCUUCCCUGCCUAGUUUCCCACUGCCCCCCCAUCCCCCAGUGUCGGCUGAGAUGUUGCCUCUGCACGGUUC | 1.18 ratio |
| GCCACCAGAUCCCAGAAACAUGACCCUUGCUGCCUACAAAGAGAAGAUGAAGGAGCUCCCGCUGGUGUCCUUGUUCUGCUCCUGCUUCUUGUCUGAUCCCCUGAAUAAGUCGUCCUACAA | 0.306 ratio |
| AAAGAGUGGAUAGAGUGUGCACACGGGAUCGGUGGGACCCGGGCGAAGAAAGAGUGCAAGAUAGAGUUCGAUGACUUCGAAGAGUGCUUGCUUCGGUACAAAACGAUGAGGCGAAUGCAU | 0.312 ratio |
| GAGUCGAGCAAACUUGAAACAAUUCGUUAUCUUGCAGCCUCAGUGUUCACUUGCUUGUGGCAAUAGCUGGGGUUUUAUAGGUUCUGGGGAAGUAGUAGACGAUGAUGCUGCCGCUGCUGC | 0.734 ratio |
| GGCCUGGGACCGUCCUGGGCUAGUACAAAUAGCGGCAGUGGAGGCUCAGAGGAAAGUUUUGUUAGUGGAGGCAGUGGUAGAGGCCGUAUGUACGCUCCCUUUACUCGAUAGAUGUGUUCU | 0.394 ratio |
| ACACAAUAUGAGACCAACAGCUUGGACUUCAAAGUUGGGGCAGAUGGGACAGUCUUCGCCACCCGGGAGCUGCAGGUCCCCUCCGAGCAGGUGGCGUUCACGGUGACUGCAUGGGACAGC | 0.202 ratio |
| GUUGCCAGCUUCCGGUUCCGUUGGGCUCGGUUCUCUCCUGAGCUACGGUCCCUGGCACUCUCAAUCCGCCAUCCAACAAACAUGGAUCAGGUAAUGCUGCAGUUUGUGCCCAGCCGGCAG | 0.23 ratio |
| GCUCCUCCCCGCUCUGCAGCCUGGGGACACUGGGCUGGGACCAGAAUCUUAUUUUUUUUUAAAACUCUCAGUGUAACUGUAUCCCGUGACAUUUCAUUUUUUUUAAAAGAAAAAAACUUU | 0.547 ratio |

A few entries again (series 3):
| Sequence | E-score |
| --- | --- |
| AGCGAACT | -0.0449 |
| GTCTAAAC | 0.0517 |
| AAATAGAA | -0.0041 |
| AACCCATC | -0.179 |
| AGTCTGAG | -0.0541 |
| ATACGCAC | 0.146 |
| AGGTCCAT | -0.0419 |
| AAACGACG | 0.0501 |
| CGCCGCAA | 0.14 |
| AACTCGAC | 0.114 |
| AGGTCGTG | 0.00364 |
